# Experimental data from different studies.
# A part holds a random share of what one study measured.

# Set 1 — method: protein binding microarray; form: double-stranded DNA, one strand shown; sample: in vitro; concentration: not given; relative to: not given; direction: higher = stronger binding
# Target: Histone acetyltransferase KAT6A, winged helix 2, GST fusion (KAT6A, Homo sapiens, UniProt Q92794, residues 85-181)
# Setting: 8-mer, flanks averaged, mean of 2 arrays, mostly near background
# Target sequence (chain): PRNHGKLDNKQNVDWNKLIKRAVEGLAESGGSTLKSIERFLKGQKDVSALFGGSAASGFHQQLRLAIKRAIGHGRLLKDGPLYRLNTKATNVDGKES
Sequence,E-score
AAACGCAT,-0.0406
AATACCTC,0.114
CGTATCAG,0.0361
CAAGCAGG,-0.00707
AGGAGCGA,0.109
ACGCGGTC,0.125
TCAATGGA,-0.136
AAATCTAT,0.178
GAGCCATA,-0.07
AAATTCGC,0.0885
GATTGCGC,0.156
AGTTTTCA,0.0892
CCCCGGCA,0.00613
TCGCAAGA,-0.117
CCGATCCG,0.115
CACACTCC,-0.131
ATAAGCAA,0.00519
TGTCTCAA,-0.167
GTGGAGGA,0.014
ATCCTGAG,0.0173

# Set 2 — method: universal PBM; form: double-stranded DNA, one strand shown; sample: in vitro; concentration: 600 nM; direction: higher = stronger binding
# Target: Sal-like protein 4, full length isoform A (SALL4, Homo sapiens, UniProt Q9UJQ4, residues 1-1053)
# UniProt Q9UJQ4, sequence (whole entry, looked up): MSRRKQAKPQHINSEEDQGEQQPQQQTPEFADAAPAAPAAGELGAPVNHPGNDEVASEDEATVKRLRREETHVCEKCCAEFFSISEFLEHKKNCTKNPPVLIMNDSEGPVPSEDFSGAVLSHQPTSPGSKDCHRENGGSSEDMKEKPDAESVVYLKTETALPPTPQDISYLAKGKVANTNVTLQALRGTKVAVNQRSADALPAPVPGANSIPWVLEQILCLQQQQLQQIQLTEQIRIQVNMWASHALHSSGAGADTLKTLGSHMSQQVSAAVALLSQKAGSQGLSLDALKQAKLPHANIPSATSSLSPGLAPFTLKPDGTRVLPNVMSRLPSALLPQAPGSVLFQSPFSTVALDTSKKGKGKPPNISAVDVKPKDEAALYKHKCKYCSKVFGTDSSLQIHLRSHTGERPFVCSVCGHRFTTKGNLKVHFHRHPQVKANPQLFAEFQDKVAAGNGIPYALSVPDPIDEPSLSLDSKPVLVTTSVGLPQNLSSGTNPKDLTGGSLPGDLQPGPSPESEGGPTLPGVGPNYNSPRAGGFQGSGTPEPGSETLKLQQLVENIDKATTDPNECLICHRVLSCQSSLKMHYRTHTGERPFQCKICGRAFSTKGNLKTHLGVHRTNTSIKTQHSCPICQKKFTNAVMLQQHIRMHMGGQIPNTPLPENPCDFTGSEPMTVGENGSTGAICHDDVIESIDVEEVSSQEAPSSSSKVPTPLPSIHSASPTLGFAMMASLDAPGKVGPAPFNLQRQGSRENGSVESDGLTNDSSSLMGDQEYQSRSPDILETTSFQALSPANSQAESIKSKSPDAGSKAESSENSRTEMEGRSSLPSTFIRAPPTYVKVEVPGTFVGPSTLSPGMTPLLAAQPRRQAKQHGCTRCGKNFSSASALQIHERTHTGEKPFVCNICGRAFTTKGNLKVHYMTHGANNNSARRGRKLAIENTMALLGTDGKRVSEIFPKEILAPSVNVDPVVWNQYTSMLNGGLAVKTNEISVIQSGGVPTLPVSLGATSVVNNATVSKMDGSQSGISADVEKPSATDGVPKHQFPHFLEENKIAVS
# Setting: 8-mer, flanks averaged, mean of replicates
Sequence,E-score
GACCAAAA,0.183
GGTCTTCA,-0.0821
TGAGGAAA,0.208
CCGCTAGA,-0.193
ATATCGCG,0.135
GCCCTACA,-0.137
GACCTTTA,0.074
CAATTGTG,0.106
TAGTCGCA,0.00211
AGATACAA,0.316
CGCAACTC,-0.0133
ACAACTCT,0.0692
CATTCATA,0.373
ATCACCTA,-0.0642
TACAGTAA,0.311
TGTGTTAA,0.31
ACTGCGCA,0.0386
AAGTGCAC,-0.00719
CGGACCCC,-0.428
ACGACTGA,-0.0743
GACAGCTC,-0.298
AATTGCGA,0.147
AGAGCGTA,-0.0822
AGTTGCCC,-0.111
GTATTCAC,0.17

# Set 3 — method: RNA Bind-n-Seq; form: RNA; sample: in vitro; concentration: 365 nM; relative to: no-protein control; direction: higher = stronger binding
# Target: RNA binding protein fox-1 homolog 2, RRM domain, GST-SBP tag (RBFOX2, Homo sapiens, UniProt O43251-10, residues 100-194)
# Setting: natural RNA segment, single round, ends assumed
# All sequences stand within: GGGAGUUCUACAGUCCGACGAUC … UGGAAUUCUCGGGUGCCAA
# Construct (chain): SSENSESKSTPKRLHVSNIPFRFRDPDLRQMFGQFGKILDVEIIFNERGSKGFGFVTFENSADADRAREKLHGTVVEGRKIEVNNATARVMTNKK
Sequence,RBNS enrichment (R)
CAUGAAGGACCCCCAUACAGCCUGUCUCCCACCCCUGACAACCCGAGAGGGCAUAUGGGGCCCUGCCAACACCACUUCCUCAGCAGAAACCCGUCAUGACGCGGCUGCUU,0.435
CAGAGGAGAGAGGAGGCCGACGCCAGCGGUCCCCGCUCGGAACGGGGAGGGUUUUCGGGGGGUUCGGCGUCGCACCUUGGGGCCCCCCGCAGCCGUGUAGGGGGCCUCCC,0.565
GGUUUGUAUAUGUGGUGAAUUCCUGCAAGAACAGUGCAUUUGUAUUAGAAAUGUAAGUUUUAAGGAUGGCCUUGUUGCCUUCUAUCAAGUUCUCUGGGACUUUGUAAUUU,0.913
UGCAAAGGGAAUGAAAUCCUGAAGCUCAGAGUGAAGUUCAAACCACGGCGUCCCGCAGAGCCUAGUCUGAACCACCCCAUGCCCACCCUGUGUUCCCGAGCGCUUCCAGG,0.422
GCUCUUGCUAUUAACGUUAUUUGUAAUUUAGUUUGUAGCUCAUUAAAAAAAUGUGCCUAGUUUUAUAGUUCAUCUCUUUCCUCCUCUUAUUUACUGAAAGAAUGGUGGGA,0.576
AUUGCUGGAAUACUGGUGUCUGUUAGAAUGCUUCAGACUACAGAUGUAAUUAAAGGCUUUUCUUAAUAUGUUUUAACCAAAGAUGUGGAGCAAUCCAAGCCACAUAUCUU,1.87
CCUUUUUGGUCAUUGUUAUAAUGCCAGCUUUAGGACAGAAAGAAUUAUAAGAAAACCAGCAUAAUACCUGAUAUAUUAAAAUGUAGUGCCUGUGAAACCUGUAUUAUACU,2.33
UCUGGAGAGCACCUCCAUUAUCUCCUCUUGAAAGUUCCUAGCCAGCAGCGCGUUCUGCGGGGCCCACUGAAGCAGAAGGCUUUUCCCUGGGGAACAGCUCUCGGUGUUGA,0.268

# Set 4 — method: RNA Bind-n-Seq; form: RNA; sample: in vitro; concentration: not given; setting: RNA with constant flanks, ends assumed; relative to: input RNA pool; direction: higher = stronger binding
# Target: RING finger protein unkempt homolog, zinc fingers 1-6, GST-SBP tag (UNK, Homo sapiens, UniProt Q9C0B0, residues 30-357)
# All sequences stand within: GGGAGUUCUACAGUCCGACGAUC … CAACAGAGGAUUGAGCAUCA
# Target sequence (chain): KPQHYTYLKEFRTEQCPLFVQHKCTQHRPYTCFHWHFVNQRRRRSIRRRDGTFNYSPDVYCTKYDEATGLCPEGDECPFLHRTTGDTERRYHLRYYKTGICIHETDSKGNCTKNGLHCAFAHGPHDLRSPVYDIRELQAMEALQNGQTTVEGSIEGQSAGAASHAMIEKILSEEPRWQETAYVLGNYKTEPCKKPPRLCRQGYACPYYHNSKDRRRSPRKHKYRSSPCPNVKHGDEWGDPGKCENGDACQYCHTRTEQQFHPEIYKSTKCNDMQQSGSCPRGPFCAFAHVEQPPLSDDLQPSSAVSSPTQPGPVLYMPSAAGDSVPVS
Sequence,bound/input enrichment
AAUUUGUUGUCUGCAAGCAAAUUAUAUAAUAAUAUUACCUUCGAAGAACUUGGAGCUCUUUCCGAGAUCCCUGCAGCUAAGGCGGAAAAGAUAGCAUCUCAAAUGAUAACCGAAGGACGU,0.421 ratio
CUGUGCGACUAUUCUCCGGGAGCCGUCCGUGUCACCGCCGGAACCUGGCGCAGGUUAAUUACCGAAAAUGCCAAGUAGGAAAUUUGCCGAUGGUGAAGUGGUAAGAGGUCGAUGGCCUGG,0.0993 ratio
AACGCUUCCGUGAGACUUGACAAUAGCUCUGGUGCAAGUGUGGUAGCUAUCGACAACAAAACCGAGCAAGCUAUGGAUCUGGUGAAAAGCCAUUUGAUGUAUGCGGUGAGGGAGGAAGUG,0.202 ratio
GGCUAUUUGAAAUAGACUAGAUUGUGUUGUCAAAUCAAGAAUGGGUGUGCAUGUGCUUGUCUCCGAAGUAUCACUGCUUUUUGCAUCUUAACUGCAGUUAAUUUUCCUUCCGACUGCGGU,0.382 ratio
AUGAAGCCAAAUAUUGAACCUCCUGAGAAUGUGGAGUGGAGUGGUGCUGAAGCCUCCAUGUUCCGAGUCCUCAUUGGUACUUACUACGAUAACUUUUGUGCCAUUGCUAGGCUAAUUGGG,0.283 ratio
GGAAAAAACAGCCUAUCUGUACUUUCACCGAAAAUUGGAAAUUUGCUAUUUCUUUCCUACUCCGAUGUAAAAGGUAAUCACUUUGAAAUCCUCCCUCCUGAACUGGGUGACUGUCGGGCU,0.494 ratio
GAAAGAGUAGAUGGGCCCAAGCACAGCCUCCUCAUGCGUUGAAAUAAUGCCAAAUGCUCUUCCGUAAAAUGCUGAAUUACGGUGUUUUUUUUUUUUUUGCAUCAUUUGUCUUUAAUAUUC,0.323 ratio
UCUGAUAAACUUAACAAUGGGGGAUCUGAUAGCCCUUGUGACUUGAAAUCACCUAAUGCAUUCCGUGAAAAUCGCCAGGACUAUUUUGAUUAUGAGUCAACCAAUCCAUUUACAGCAAAA,0.225 ratio

# Excerpt of the above (set 2):
Sequence,E-score
AGAGCGTA,-0.0822
GACCAAAA,0.183
CATTCATA,0.373
ACTGCGCA,0.0386
ACAACTCT,0.0692
TACAGTAA,0.311
AGATACAA,0.316
